Values quoted from earlier work, collected from citations in different studies.
Protocols differ between the studies behind these lines. ± gives the spread as reported.

Compound | target or system | assay | system | conditions | scale | measurement | value
O=C(Nc1ccccc1-c1ccc(Br)cc1)c1nccnc1C(F)(F)F | Puccinia triticina |  | wheat |  |  | EC80 | 20 to 100 mg a.i./L
CC(=O)N[C@H](CCCNC(=N)N)C(=O)N[C@H](CCCNC(=N)N)C(=O)N[C@H](CCCNC(=N)N)C(=O)N[C@H](CCCNC(=N)N)C(=O)N[C@H](CCCNC(=N)N)C(=O)N[C@H](CCCNC(=N)N)C(=O)N[C@H](CCCNC(=N)N)C(=O)N[C@H](CCCNC(=N)N)C(=O)N[C@H](CCCNC(=N)N)C(N)=O | HIV-1 | viral replication | HuT78, NL4-3 |  |  | IC50 | 0.003 µM
CN1C(=O)[C@@H](Cc2ccc(O)cc2)NC(=O)CNC(=O)[C@H](Cc2ccc3ccccc3c2)NC(=O)[C@H](CCCNC(=N)N)NC(=O)[C@H]1CCCNC(=O)c1ccc(CNC(=O)CN2CCN(CC(=O)O)CCN(CC(=O)O)CCN(CC(=O)O)CC2)cc1 [gallium-68 labelled] |  | PET dosimetry | human patients, adrenals |  |  | absorbed dose coefficient | 0.0123 mGy/MBq
CCOC(=O)c1c(C(=O)OC)cn(CC(c2cn(C)c3ccccc23)c2cn(C)c3ccccc23)c1C | Leishmania infantum |  |  |  |  | IC50 | 3.7 µM
C/C=C1\NC(=O)[C@H](Cc2ccccc2)NC(=O)[C@H](C(C)C)NC(=O)[C@H](Cc2c[nH]cn2)NC(=O)[C@H](CCC(N)=O)NC(=O)[C@H](Cc2ccc3ccccc3c2)NC(=O)[C@H]2CSC[C@@H](C(=O)N[C@@H](CO)C(=O)O)NC(=O)[C@H](CSC[C@H]3NC(=O)[C@H]([C@@H](C)CC)NC(=O)[C@H](NC(=O)[C@H](Cc4c[nH]cn4)NC(=O)[C@@H](NC(=O)[C@@H](NC(=O)CNC(=O)[C@H](CO)NC(=O)CNC(=O)CNC(=O)[C@@H](N)CCCCN)C(C)C)[C@@H](C)CC)[C@H](C)SC[C@H](NC(=O)[C@H](CCC(=O)O)NC(=O)[C@H](Cc4c[nH]cn4)NC3=O)C(=O)N[C@@H](CCCNC(=N)N)C(=O)N[C@@H](CCSC)C(=O)N[C@@H](CC(N)=O)C(=O)N2)NC1=O | Lactococcus lactis subsp. cremoris | cell growth | HP |  |  | IC50 | 1.37 ± 0.048 µM
CC1CC(C)(C)c2cccc(NC(=O)c3nccnc3C(F)(F)F)c21 (stereo not shown) | Puccinia triticina |  | wheat |  |  | EC80 | < 1 mg a.i./L
Cc1cccnc1-n1cccc1C(=O)c1ccc(F)cc1 | Leishmania donovani |  | promastigotes |  |  | IC50 | 7.8 µM
CC1(C)O[C@H](COP(=O)(O)O)[C@H](C(=O)NO)O1 | Trypanosoma brucei rhodesiense | parasite growth, whole parasite |  |  |  | IC50 | > 332 µM
COC(=O)C1=CO[C@@H](C)[C@@H]2Cn3ccc4c5ccccc5nc-4c3C[C@H]12 | Plasmodium falciparum |  | K1 | 48 h |  | IC50 | > 30 µM
O=C(c1ccc2noc(-c3ccccc3)c2c1)N1CCCC(c2nnc3ccccn23)C1 (stereo not shown) | Plasmodium | parasite growth |  |  |  | IC50 | 18.6 µM
C[C@@H](Nc1c(-c2c(F)cc(C#CCCO)cc2F)c(Cl)nc2ncnn12)C(C)(C)C | HEK293 |  |  | 10 µM, 4 h, unit not given | relative to: vehicle (DMSO) | acetylated α-tubulin level | 5.25 ± 0.89
COc1ccc(C(=O)Nc2cc(OC)c(OC)c(OC)c2)cc1NC(=O)C(C)Br (stereo not shown) | Hepatitis C virus | viral replication |  |  |  | IC50 | 1.46 ± 0.62 µM
Nc1ncnc2c1ncn2Cc1cn(CP(=O)(O)O)nn1 | hepatitis C virus | viral replication |  |  |  | IC50 | 16 µM
COc1cc(O)c(-c2ccc(OC)c3c(O)cc(C)c(-c4cc(-c5c(O)cc(OC)c6c5C[C@H](C)N(C)[C@@H]6C)c5cc(C)cc(OC)c5c4O)c23)c2c1[C@@H](C)N(C)[C@H](C)C2 | Trypanosoma brucei rhodesiense |  | STIB900 | trypomastigotes |  | IC50 | 0.005 µM
CCCCCCCCCCC[C@@H](O)CC(=O)N[C@@H](CC(C)C)C(=O)N[C@H](CCC(=O)O)C(=O)N[C@H]1C(=O)N[C@H]([C@@H](C)CC)C(=O)N[C@H](CC(C)C)C(=O)N[C@H](CO)C(=O)N[C@@H](CC(C)C)C(=O)N[C@@H](CC(C)C)C(=O)N[C@H](CO)C(=O)N[C@@H](C(C)C)C(=O)O[C@@H]1C | Chlamydomonas reinhardtii | immobilization |  |  |  | IC50 | 4.1 µM
CC(C)c1ccc(CNC(=O)/C=C/c2ccccc2)cc1 | Leishmania infantum | parasite growth |  |  |  | IC50 | 33.7 µM
CC1=CCC23OC2(C)CCC2C(CN(C)C)C(=O)OC2C13.Cl (stereo not shown) |  |  | sarcoma M-1, rat | intraperitoneal and intratumoral, dose not given |  | tumour growth inhibition | 72 to 79%
C[C@@H](Nc1c(-c2c(F)cc(OCCCO)cc2F)c(Cl)nc2ncnn12)C(C)(C)C | HEK293 |  |  | 10 µM, 4 h, unit not given | relative to: vehicle (DMSO) | total α-tubulin level | 1.06 ± 0.03
Clc1ccc(CNCC(c2c[nH]c3cc(Br)ccc23)c2c[nH]c3cc(Br)ccc23)cc1 | Leishmania infantum |  | promastigotes |  |  | IC50 | 2.7 µM
COCCOCCOCCOCCC(=O)NCc1cc(CNC(=O)CCOCCOCCOCCOC)cc(-c2cc3cc4nc(c(OC)c5[nH]c(cc6nc(cc2[nH]3)CC6(C)C)cc5-c2cc(CNC(=O)CCOCCOCCOCCOC)cc(CNC(=O)CCOCCOCCOCCOC)c2)CC4(C)C)c1 |  |  | PBS | room temperature |  | intersystem crossing yield | 0.4
O=[N+]([O-])c1ccc(C(c2c[nH]c3ccc(I)cc23)c2c[nH]c3ccc(I)cc23)cc1 | Leishmania donovani |  | promastigote |  |  | IC50 | < 10 µM
O=C(c1ccc(O)c(O)c1)N1CCN(Cc2ccccc2)CC1 | Trypanosoma cruzi |  | Y strain, trypomastigotes |  |  | IC50 | 42.5 ± 8.9 µM
CCC(C)C(=O)c1c(O)c(CCC(C)C)c(O)c2c1OC(=O)CC2c1ccccc1 (stereo not shown) | Leishmania amazonensis |  | promastigotes |  |  | IC50 | 0.9 µM
CCc1ccc(-n2cc(CC3CCSCC3)cc2-c2ccc(SC)cc2)cc1 | Leishmania donovani |  | amastigotes |  |  | IC50 | 13.8 µM
C/C=C1\NC(=O)[C@H](Cc2ccccc2)NC(=O)[C@H](C(C)C)NC(=O)[C@H](Cc2ccncc2)NC(=O)[C@H](CCC(N)=O)NC(=O)[C@H](Cc2ccc3ccccc3c2)NC(=O)[C@H]2CSC[C@@H](C(=O)N[C@@H](CO)C(=O)O)NC(=O)[C@H](CSC[C@H]3NC(=O)[C@H]([C@@H](C)CC)NC(=O)[C@H](NC(=O)[C@H](Cc4c[nH]cn4)NC(=O)[C@@H](NC(=O)[C@@H](NC(=O)CNC(=O)[C@H](CO)NC(=O)CNC(=O)CNC(=O)[C@@H](N)CCCCN)C(C)C)[C@@H](C)CC)[C@H](C)SC[C@H](NC(=O)[C@H](CCC(=O)O)NC(=O)[C@H](Cc4c[nH]cn4)NC3=O)C(=O)N[C@@H](CCCNC(=N)N)C(=O)N[C@@H](CCSC)C(=O)N[C@@H](CC(N)=O)C(=O)N2)NC1=O | Lactococcus lactis subsp. cremoris | cell growth | HP |  |  | IC50 | 2.42 ± 0.06 µM
